Assay results pooled from the literature.
Several values in a cell are separate wells, animals, samples, runs or records. ± marks the error that the study gave.

| Compound | cell line | assay | setting | EC50 |
| --- | --- | --- | --- | --- |
| CCN(CC)CCNC(=O)c1c(C)[nH]c(/C=C2\C(=O)Nc3ccc(F)cc32)c1C | PPC-1 | cell viability, MTT | 72 h | 1.45 ± 0.07 µM |
| Cc1ccc(-c2nc3ccccc3o2)cc1NC(=O)c1cc([N+](=O)[O-])c(N2CCN(C)CC2)cc1Cl | J774.A1 | cytotoxicity |  | 2.6 ± 2.1 µM |
| Cc1cc(OCc2nnc(SC3CCCC3)n2-c2cccnc2)ccc1-c1ccc(S(C)(=O)=O)cc1 | BRD4-HiBiT cells | BRD4 degradation rescue, inhibitor | 4 h, 50% degradation rescued, with: dBET6 500 nM | 12.2 µM |
| COc1ccc(S(=O)(=O)N(CC(=O)O)c2ccc(N(CC(=O)O)S(=O)(=O)c3ccc(OC)cc3)c3ccccc23)cc1 | SH-SY5Y Neh2-luc | reporter gene | 3 h | > 30 µM |
| Cc1nn(-c2nc3c(F)cc(F)cc3s2)c(O)c1C(c1cccc(C(F)(F)F)c1)c1c(C)nn(-c2nc3c(F)cc(F)cc3s2)c1O | THP1-Dual | IFN reporter gene, inhibitor | with: HT-DNA | 17.9 µM and 14.7 µM and 15 µM |
| CCCC1=C(C(=O)OCC)C(c2ccc(Cl)cc2C)C2=C(CC(c3cc(OC)ccc3OC)CC2=O)N1 (centres unmarked) | J774.A1 | cytotoxicity |  | > 20 µM |
| Cc1ccc(-c2nc3ccccc3s2)cc1NC(=O)c1cc([N+](=O)[O-])c(NCCN)cc1Cl | J774.A1 | cytotoxicity |  | 5 ± 4.5 µM |
| CCOC(=O)C1=C(C)NC2=C(C(=O)OC(c3ccccc3C)C2)C1c1ccccc1Cl (centres unmarked) | J774.A1 | cytotoxicity |  | > 20 µM |
| NS(=O)(=O)OC[C@@H]1C[C@@H](n2ccc3c(N[C@H]4CCc5ccccc54)ncnc32)C[C@@H]1O | BRD4-HiBiT cells | BRD4 degradation rescue, inhibitor | 8 h, with: dBET6 500 nM | 0.0907 µM |
| CCCC1=C(C(=O)OCC)C(c2ccc(Cl)cc2C)C2=C(CC(c3ccc(OC)c(OC)c3)CC2=O)N1 (mixture of isomers) | J774.A1 | cytotoxicity |  | > 20 µM |
| COC[C@H](NC(=O)c1cnc(C)s1)C(=O)N[C@@H](COC)C(=O)N[C@@H](Cc1ccccc1)C(=O)[C@@]1(C)CO1 | BRD4-HiBiT cells | BRD4 degradation rescue, inhibitor | 4 h, with: dBET6 500 nM | 9.41 µM |
| CCOC(=O)C1=C(C)NC2=C(C(=O)OC(c3ccc(OC)c(OC)c3)C2)C1c1ccccc1 (centres unmarked) | J774.A1 | cytotoxicity |  | > 20 µM |
| O=C(Nc1cccc(-c2nc3ccccc3o2)c1)c1cc([N+](=O)[O-])c(F)cc1F | J774.A1 | cytotoxicity |  | 2 ± 0.3 µM |
| CCCC1=C(C(=O)OCC)C(c2ccc(Cl)cc2C)C2=C(CC(c3ccc(OC)c(OC)c3)OC2=O)N1 (mixture of isomers) | J774.A1 | cytotoxicity |  | > 20 µM |
| Cc1nn(-c2nc3ccccc3s2)c(O)c1C(c1ccccc1C(=O)O)c1c(C)nn(-c2nc3ccccc3s2)c1O | THP1-Dual | IFNB1 luciferase reporter, inhibitor | with: HT-DNA | > 20 µM |
| CCOC(=O)C1=C(C)NC2=C(C(=O)OC(c3ccc(OC)c(OC)c3)C2)C1c1ccc(Cl)cc1 (centres unmarked) | J774.A1 | cytotoxicity |  | > 20 µM |
| Cc1cc(Cl)c(Cl)cc1NC(=O)c1ccc(N2CCNCC2)nc1 | J774.A1 | cytotoxicity |  | 5.2 µM |
| CCn1cc(-c2cc(Cn3ccnc3)cc3c2CCN([C@H](c2cc(OC)ccn2)C2CC2)C3=O)c(C(F)(F)F)n1 | MOLM-13 | cell growth, inhibitor | 120 h | 0.37 µM |
| O=C1C[C@@H](c2ccc(O)cc2)Oc2cc(O)cc(O)c21 | HepG2-ARE-Luc | Nrf2-ARE reporter gene, activator |  | 31 µM |

| Compound | cell line | assay | setting | EC50 |
| --- | --- | --- | --- | --- |
| Cc1ccc(-c2nc3ccccc3s2)cc1NC(=O)c1cc([N+](=O)[O-])c(NCCN(C)C)cc1Cl | J774.A1 | cytotoxicity |  | 1.9 µM |
| NS(=O)(=O)OC[C@H]1C[C@@H](Nc2ccnc3cc(-c4cccc(SC(F)(F)F)c4)nn23)[C@H](O)[C@@H]1O | BRD4-HiBiT cells | BRD4 degradation rescue, inhibitor | 24 h, 50% degradation rescued, with: dBET6 500 nM | 0.0744 µM |
| CN1CCN(c2cc(Cl)c(C(=O)Nc3cncc(-c4nc5ccccc5s4)c3)cc2[N+](=O)[O-])CC1 | J774.A1 | cytotoxicity |  | 1.8 ± 1.1 µM |
| CN1CC(Oc2cnc(C#N)cc2-c2ccn3nc(NC(=O)C4CC4)cc3c2)C1 | human monocyte-derived macrophages | cytokine release increase, refers to: IL-10 | with: LPS | 0.7 µM |
| CCCC1=C(C(=O)OCC)C(c2ccccc2Cl)C2=C(CC(c3ccc(OC)c(OC)c3)CC2=O)N1 (mixture of isomers) | J774.A1 | cytotoxicity |  | > 20 µM |
| Nc1ncnc2c1ncn2[C@@H]1O[C@H](CO)[C@@H](O)[C@H]1O | HeLa, empty vector | calcium mobilization |  | 2.39 µM |
| Cc1nn(-c2nc3c(F)cc(F)cc3s2)c(O)c1C(c1ccccc1C(F)(F)F)c1c(C)nn(-c2nc3c(F)cc(F)cc3s2)c1O | THP1-Dual | IFNB1 luciferase reporter, inhibitor | with: HT-DNA | 18.4 ± 0.3 µM |
| Nc1cccc2c1CN(C1CCC(=O)NC1=O)C2=O (centres unmarked) | BRD4-HiBiT cells | BRD4 degradation rescue, inhibitor | 4 h, 50% degradation rescued, with: dBET6 500 nM | 7.27 µM |
| CCn1cc(-c2cc(Cn3ccoc3=N)cc3c2CCN([C@@H](C)c2cc(OC)ccn2)C3=O)c(C(F)(F)F)n1 | SW837 | cell growth, inhibitor | 120 h | 3.05 µM |
| O=c1c(O)c(-c2ccc(O)cc2)oc2cc(O)cc(O)c12 | HepG2-ARE-Luc | Nrf2-ARE reporter gene, activator |  | 4.95 µM |
| CC(C)C[C@H](NC(=O)CNC(=O)c1cc(Cl)ccc1Cl)B(O)O | BRD4-HiBiT cells | BRD4 degradation rescue, inhibitor | 8 h, 50% degradation rescued, with: dBET6 500 nM | 0.149 µM |
| Cc1cc(Cl)c(Cl)cc1NC(=O)c1cc([N+](=O)[O-])c(F)cc1Cl | J774.A1 | cytotoxicity |  | 1.8 µM |
| Cc1nn(-c2nc3ccccc3[nH]2)c(O)c1C(c1ccccn1)c1c(C)nn(-c2nc3ccccc3[nH]2)c1O | THP1-Dual | IFNB1 luciferase reporter, inhibitor | with: HT-DNA | > 20 µM |
| O=C(NN=Cc1ccc([N+](=O)[O-])s1)C1CC(=O)N(c2ccc(F)cc2F)C1 (centres unmarked) | PPC-1 | cell viability, MTT | 72 h | 13.1 ± 3.4 µM |
| CC(C)C[C@H](NC(=O)[C@H](Cc1ccccc1)NC(=O)c1cnccn1)B(O)O | BRD4-HiBiT cells | BRD4 degradation rescue, inhibitor | 8 h, 50% degradation rescued, with: dBET6 500 nM | 0.0847 µM |
| COc1cnc2cccc(N3CCc4c(cc(Cn5ccnc5C)cc4-c4cn(C)nc4C(F)(F)F)C3=O)c2c1 | MINO | cell growth, inhibitor | 120 h | 1.23 µM |
| CCOC(=O)C1=C(C)NC2=C(C(=O)OC(c3ccc(OC)c(OC)c3)C2)C1c1ccccc1Cl (mixture of isomers) | J774.A1 | cytotoxicity |  | > 20 µM |
| COc1cccc2c1C(=O)c1c(O)c3c(c(O)c1C2=O)C[C@@](O)(C(=O)CO)C[C@@H]3O[C@H]1C[C@H](N)[C@H](O)[C@H](C)O1 | PPC-1 | cell viability, MTT | 72 h | 0.088 ± 0.01 µM |
| Cc1ccc(-c2nc3ccccc3s2)cc1NC(=O)c1cc([N+](=O)[O-])c(N2CCN(C)CC2)cc1Cl | J774.A1 | cytotoxicity |  | 4 ± 2.2 µM |

For quick reference, copied from above:
| Compound | cell line | assay | setting | EC50 |
| --- | --- | --- | --- | --- |
| CC(C)C[C@H](NC(=O)CNC(=O)c1cc(Cl)ccc1Cl)B(O)O | BRD4-HiBiT cells | BRD4 degradation rescue, inhibitor | 8 h, 50% degradation rescued, with: dBET6 500 nM | 0.149 µM |
| Cc1cc(Cl)c(Cl)cc1NC(=O)c1cc([N+](=O)[O-])c(F)cc1Cl | J774.A1 | cytotoxicity |  | 1.8 µM |
| Cc1nn(-c2nc3ccccc3[nH]2)c(O)c1C(c1ccccn1)c1c(C)nn(-c2nc3ccccc3[nH]2)c1O | THP1-Dual | IFNB1 luciferase reporter, inhibitor | with: HT-DNA | > 20 µM |
| O=C(NN=Cc1ccc([N+](=O)[O-])s1)C1CC(=O)N(c2ccc(F)cc2F)C1 (centres unmarked) | PPC-1 | cell viability, MTT | 72 h | 13.1 ± 3.4 µM |
| CC(C)C[C@H](NC(=O)[C@H](Cc1ccccc1)NC(=O)c1cnccn1)B(O)O | BRD4-HiBiT cells | BRD4 degradation rescue, inhibitor | 8 h, 50% degradation rescued, with: dBET6 500 nM | 0.0847 µM |
| COc1cnc2cccc(N3CCc4c(cc(Cn5ccnc5C)cc4-c4cn(C)nc4C(F)(F)F)C3=O)c2c1 | MINO | cell growth, inhibitor | 120 h | 1.23 µM |
